Measured values of several laboratories.
Each line is one published result; not all experiments were run side by side. Numbers after ± are the reported error.
Target: Alpha-glucosidase MAL12 (MAL12, Saccharomyces cerevisiae S288c, UniProt P53341)
Chain of UniProt P53341 (whole entry, looked up): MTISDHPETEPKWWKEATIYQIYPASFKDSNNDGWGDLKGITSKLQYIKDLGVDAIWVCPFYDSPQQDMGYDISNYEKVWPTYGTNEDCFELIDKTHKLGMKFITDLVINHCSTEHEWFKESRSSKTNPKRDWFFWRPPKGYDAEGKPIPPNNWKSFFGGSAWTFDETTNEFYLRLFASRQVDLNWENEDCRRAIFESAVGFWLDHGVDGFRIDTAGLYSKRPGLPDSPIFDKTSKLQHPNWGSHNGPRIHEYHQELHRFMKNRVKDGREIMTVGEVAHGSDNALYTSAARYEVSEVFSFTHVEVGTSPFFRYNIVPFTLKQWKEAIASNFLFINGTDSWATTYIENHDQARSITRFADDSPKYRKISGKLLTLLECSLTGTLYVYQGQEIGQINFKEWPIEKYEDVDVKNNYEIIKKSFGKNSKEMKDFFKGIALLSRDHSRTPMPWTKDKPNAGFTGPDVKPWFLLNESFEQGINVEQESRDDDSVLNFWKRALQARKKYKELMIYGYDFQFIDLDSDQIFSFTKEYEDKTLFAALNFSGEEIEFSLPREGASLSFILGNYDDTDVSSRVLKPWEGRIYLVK

Structure (SMILES) = O=c1ccc2ccc(O)c(Cn3cccn3)c2o1; mode = inhibitor; concentration = 25 µM; inhibition = < 0%
Structure (SMILES) = Cc1ccc(CNC(=S)N/N=C/c2coc3cc(F)ccc3c2=O)cc1; observed = enzyme activity; mode = inhibitor; concentration = 500 µM; inhibition = 90.4%
Structure (SMILES) = COc1cc(Cn2cnc3ccccc32)ccc1O; mode = inhibitor; concentration = 25 µM; inhibition = 10.9%
Structure (SMILES) = O=c1c(/C=N/NC(=S)NCc2ccccc2)coc2cc(F)ccc12; observed = enzyme activity; mode = inhibitor; concentration = 500 µM; inhibition = 90.1%
Structure (SMILES) = Oc1cc2c(cc1O)C(CCc1ccccc1)NCC2 (stereo not shown); observed = enzyme activity; mode = inhibitor; concentration = 100 µM; notes = DMSO solvent; together with = pNPG substrate; inhibition = 62.7 ± 0.84%
Structure (SMILES) = O=Cc1ccc(O)cc1; mode = inhibitor; concentration = 100 µg/mL; time = 0.4167 h; together with = p-nitrophenyl glucoside substrate; inhibition = 26.1 ± 3.9%
Structure (SMILES) = O=c1c(/C=N/NC(=S)Nc2ccc(Cl)cc2)coc2cc(F)ccc12; observed = enzyme activity; mode = inhibitor; concentration = 500 µM; inhibition = 91.2%
Structure (SMILES) = CCCCCCCCC1NCCc2cc(O)c(O)cc21 (stereo not shown); observed = enzyme activity; mode = inhibitor; concentration = 100 µM; notes = DMSO solvent; together with = pNPG substrate; inhibition = 35.5 ± 1.57%
Structure (SMILES) = O=c1c(O)c(-c2ccc(O)c(O)c2)oc2cc(O)cc(O)c12; observed = enzyme activity; concentration = concentration not given; together with = p-nitrophenyl α-D-glucoside substrate; inhibition = 98.7%
Structure (SMILES) = NC(=O)NCc1ccc(O)cc1; mode = inhibitor; concentration = 100 µg/mL; time = 0.4167 h; together with = p-nitrophenyl glucoside substrate; inhibition = 33.8 ± 3.58%
Structure (SMILES) = O=c1ccc2ccc(O)c(Cn3cnc4ccccc43)c2o1; mode = inhibitor; concentration = 25 µM; inhibition = 13.3%
Structure (SMILES) = O=c1c(/C=N/NC(=S)NCc2ccc(Cl)cc2)coc2cc(F)ccc12; observed = enzyme activity; mode = inhibitor; concentration = 500 µM; inhibition = 91.8%
Structure (SMILES) = COc1cccc(C2NCCc3cc(O)c(O)cc32)c1 (stereo not shown); observed = enzyme activity; mode = inhibitor; concentration = 100 µM; notes = DMSO solvent; together with = pNPG substrate; inhibition = 59.9 ± 3.32%
Structure (SMILES) = COc1cccc(NC(=S)N/N=C/c2coc3cc(F)ccc3c2=O)c1; observed = enzyme activity; mode = inhibitor; concentration = 500 µM; inhibition = 91.3%
Structure (SMILES) = CCCCCCCCCCC1NCCc2cc(O)c(O)cc21 (stereo not shown); observed = enzyme activity; mode = inhibitor; concentration = 100 µM; notes = DMSO solvent; together with = pNPG substrate; inhibition = 35.4 ± 0.54%
Structure (SMILES) = Cc1cc(=O)oc2c(Cn3cccn3)c(O)ccc12; mode = inhibitor; concentration = 25 µM; inhibition = 35.5%
Structure (SMILES) = C[C@@H]1O[C@@H](Oc2ccc(CC#N)cc2)[C@H](O)[C@H](O)[C@H]1O; mode = inhibitor; concentration = 100 µg/mL; time = 0.4167 h; together with = p-nitrophenyl glucoside substrate; inhibition = 27.3 ± 1.71%
Structure (SMILES) = Oc1ccc(Cn2cccn2)cc1; mode = inhibitor; concentration = 25 µM; inhibition = < 0%
Structure (SMILES) = C[C@H]1O[C@H](O[C@H]2[C@H](O)[C@@H](O)[C@@H](O[C@H]3[C@H](O)[C@@H](O)C(O)O[C@@H]3CO)O[C@@H]2CO)[C@H](O)[C@@H](O)[C@@H]1N[C@H]1C=C(CO)[C@@H](O)[C@H](O)[C@H]1O (stereo partly shown); observed = enzyme activity; mode = inhibitor; concentration = concentration not given; inhibition = 98.2 ± 1.24%
